# Measured values pooled from the literature.
# Compare with care: the assays were run in different laboratories.
Structure (SMILES),method,medium,time,pH,temperature,solubility
Clc1cccc(Nc2nc(NCc3ccccc3)c3ccccc3n2)c1,,aqueous buffer,,pH 7.4,,2e-05 mg/mL
CN1CCC[C@@H]1C(=O)N[C@@H](Cc1ccc(-c2ccccc2)cc1)B(O)O,nephelometry,aqueous buffer,,pH 6.8,,> 200 µM
O=C(CCCCCCCCCCCCCCCCC(=O)Oc1c2n(cc(C(=O)NCc3c(F)cc(F)cc3F)c1=O)CC1OC3CCC(C3)N1C2=O)Oc1c2n(cc(C(=O)NCc3c(F)cc(F)cc3F)c1=O)CC1OC3CCC(C3)N1C2=O (stereo not drawn),,water,24 h,,,0.00196 mg/mL
CCC(C)n1c(C(=O)Nc2cnc(C(=O)NC)n(CC(C)C)c2=O)ncc(NC(=O)c2ncc(NC(=O)c3ccccc3)c(=O)n2Cc2ccc(OC)cc2)c1=O (stereo not drawn),,PBS,4 h,pH 7.4,25 °C,5 µM
CN(C)C(=O)c1ccnc(N2Cc3cn(Cc4ccc(F)cc4F)nc3C2)n1,,water,,,,> 100 µM
CCCCN1/C(=C/c2cc(/C=C/c3ccc(N(c4ccccc4)c4ccccc4)cc3)[n+](C)c3ccccc23)Sc2ccccc21,HPLC,water,24 h,,25 °C,89 µM
O=C(NO)c1ccc(/N=N/c2ccccc2)cc1,,water,,,,< 2 µM
CN(C)C(=O)c1ccnc(N2Cc3cn(Cc4ccc(F)cc4)nc3C2)n1,,water,,,,> 100 µM
OCC1OC(n2cnc3c(NCc4ccc(Br)s4)ncnc32)C(O)C1O (stereo not drawn),,water,,,,0.29 mg/mL
C[n+]1c(/C=C/c2ccc(N(c3ccccc3)c3ccccc3)cc2)cc(/C=C2\Sc3ccccc3N2CCCN2CCCC2)c2ccccc21,HPLC,water,24 h,,25 °C,102 µM
Cc1ncc2[nH]c(=O)n(-c3cnc(Oc4cccc5c4C(C)(C)CO5)c(Cl)c3C)c2n1,,aqueous buffer,,pH 7,,142 µM
CN(C)S(=O)(=O)c1ccc(S(=O)(=O)N2CCC(n3c(=O)[nH]c4ccccc43)CC2)cc1,HPLC,water,24 h,,20 °C,≤ 0.001 mg/mL
N#Cc1cccc(N2CN(CC(=O)NCC(F)(F)F)C(=O)C23CCN(C(=O)c2cnc4[nH]ncc4c2)CC3)c1,,aqueous buffer,,pH 6.5,,1500 mg/mL
CC(=Nc1ccc(N)cc1)N(C)C,shake flask,PBS,24 h,pH 7.4,25 °C,1.05 mg/mL
CC1=Cc2ccccc2OC12Oc1ccccc1C=C2C,absorbance,water,,,,0.00693 mg/mL
Cc1ccc2c(c1)nc(NC(=O)c1cccc(C(F)(F)F)c1)n2[C@H]1CC[C@H](N)CC1,,aqueous buffer,,,,32.9 µM
COc1cccc2c(NCc3ccccc3)nc(Nc3cccc(Cl)c3)nc12,,aqueous buffer,,pH 7.4,,< 1e-05 mg/mL
C[C@@H](CO)NC(=O)c1cc(-c2ccc(Cl)cc2)nn(-c2cnn(C)c2)c1=O,,aqueous buffer,24 h,pH 6.5,,8.7 µM
NCCCC[C@H](NC(=O)[C@H](Cc1c[nH]c2ccccc12)NC(=O)[C@H](CCCCN)NC(=O)[C@@H](N)Cc1c[nH]c2ccccc12)C(=O)N[C@@H](Cc1c[nH]c2ccccc12)C(=O)O,,water,,,,> 10000 µM
C/C(N)=N/C(=N\S(=O)(=O)c1ccc(C(F)(F)F)cc1)N1C[C@H](c2ccccc2)C(c2ccc(Cl)cc2)=N1,,simulated intestinal fluid,,pH 6.8,,1.46 µM
COc1cccc2c(NCc3ccccc3)nc(Nc3cccc(F)c3)nc12,,aqueous buffer,,pH 5,,9e-05 mg/mL
CN(C)C(=O)c1cccc(N2Cc3cn(Cc4ccc(F)cc4F)nc3C2)c1,,water,,,,> 100 µM
COCCN(C)CC(=O)NC(Cc1ccc(-c2ccccc2)cc1)B(O)O (stereo not drawn),nephelometry,aqueous buffer,,pH 6.8,,> 200 µM
COc1ncc2nc(C)n(Cc3ncc(S(N)(=O)=O)cc3F)c2c1-c1ccccc1,,aqueous buffer,,pH 7.4,,65.6 µM
O=c1c2ccccc2[se]n1CCCCCCn1[se]c2ccccc2c1=O,,water,24 h,,25 °C,0.0016 mg/mL
Brc1cccc(CNc2nc(NCc3ccccc3)c3ccccc3n2)c1,,aqueous buffer,,pH 5,,0.00037 mg/mL
CCC1(CC)CC(=O)N(C2c3cc(C(=O)NC4c5ccccc5CC4O)ccc3OC2(C)COC)C(=N)N1 (stereo not drawn),,aqueous buffer,,pH 7,,≥ 100 µM
CN(C)C(=O)c1cccc(N2Cc3cnn(Cc4ccc(F)cc4)c3C2)c1,,water,,,,65 µM
O=C(CN1CN(c2cccc(F)c2)C2(CCN(C(=O)c3cnc4[nH]ncc4c3)CC2)C1=O)NCC(F)(F)F,,aqueous buffer,,pH 6.5,,400 mg/mL
O=C(NC1CCCCC1)c1cccc(N2Cc3cn(Cc4ccc(F)cc4)nc3C2)c1,,water,,,,< 1 µM
Cc1ncc2[nH]c(=O)n(-c3cnc(Oc4cccc5c4C(C)(C)CO5)c(Cl)c3)c2n1,,aqueous buffer,,pH 7,,32 µM
Cc1cc(C)nc(NC(=S)N2CCN(Cc3ccc(C(F)(F)F)cc3)CC2)c1,,PBS,6 h,pH 7.4,,24.5 µM
O=C(c1ccnc(N2Cc3cn(Cc4ccc(F)cc4)nc3C2)n1)N1CCOCC1,,water,,,,> 100 µM

# For quick reference, copied from above:
Structure (SMILES),method,medium,time,pH,temperature,solubility
O=C(CCCCCCCCCCCCCCCCC(=O)Oc1c2n(cc(C(=O)NCc3c(F)cc(F)cc3F)c1=O)CC1OC3CCC(C3)N1C2=O)Oc1c2n(cc(C(=O)NCc3c(F)cc(F)cc3F)c1=O)CC1OC3CCC(C3)N1C2=O (stereo not drawn),,water,24 h,,,0.00196 mg/mL
CCC(C)n1c(C(=O)Nc2cnc(C(=O)NC)n(CC(C)C)c2=O)ncc(NC(=O)c2ncc(NC(=O)c3ccccc3)c(=O)n2Cc2ccc(OC)cc2)c1=O (stereo not drawn),,PBS,4 h,pH 7.4,25 °C,5 µM
